Assay results of several laboratories.
Target: Aryl hydrocarbon receptor (AHR, Homo sapiens, UniProt P35869)
Sequence (P35869 11-848, as in one of the studies): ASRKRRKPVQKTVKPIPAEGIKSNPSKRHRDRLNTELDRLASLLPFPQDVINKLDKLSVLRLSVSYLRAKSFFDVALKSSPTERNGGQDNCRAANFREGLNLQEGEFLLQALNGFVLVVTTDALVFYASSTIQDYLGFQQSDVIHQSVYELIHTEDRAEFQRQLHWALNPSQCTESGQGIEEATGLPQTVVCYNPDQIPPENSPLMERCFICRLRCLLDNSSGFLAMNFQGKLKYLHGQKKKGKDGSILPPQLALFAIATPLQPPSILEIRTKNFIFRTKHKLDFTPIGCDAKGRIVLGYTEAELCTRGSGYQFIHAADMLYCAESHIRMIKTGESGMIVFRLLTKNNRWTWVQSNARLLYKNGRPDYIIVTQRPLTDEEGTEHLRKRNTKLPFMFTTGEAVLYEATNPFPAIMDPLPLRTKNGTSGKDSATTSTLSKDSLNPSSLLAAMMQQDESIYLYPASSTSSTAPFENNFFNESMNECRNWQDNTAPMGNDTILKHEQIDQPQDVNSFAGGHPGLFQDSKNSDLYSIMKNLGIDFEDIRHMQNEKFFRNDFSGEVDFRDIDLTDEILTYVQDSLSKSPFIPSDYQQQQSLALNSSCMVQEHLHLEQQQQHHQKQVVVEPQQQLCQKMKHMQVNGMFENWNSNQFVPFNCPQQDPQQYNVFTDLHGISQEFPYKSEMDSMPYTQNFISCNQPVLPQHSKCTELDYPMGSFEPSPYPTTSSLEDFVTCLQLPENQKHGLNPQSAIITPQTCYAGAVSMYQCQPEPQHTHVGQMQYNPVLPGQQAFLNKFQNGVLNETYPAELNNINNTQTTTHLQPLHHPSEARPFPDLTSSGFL

Clc1ccc(-c2cc(Cl)ccc2Cl)cc1  IC50 (reporter gene, antagonist; AZ-AHR cells; 24 h, with: TCDD 4.5 nM): 39 µM
Cc1ccc2c(ccc3ccccc32)c1  EC50 (reporter gene, agonist, yeast LacZ reporter; Saccharomyces cerevisiae; 18 h): 24.4 µM
COP(=S)(OC)Oc1nc(Cl)c(Cl)cc1Cl  EC50 (agonist): 5.1 µM
Clc1cccc(-c2cccc(Cl)c2)c1  IC50 (reporter gene, antagonist; AZ-AHR cells; 24 h, with: TCDD 4.5 nM): 37 µM
Cc1cc2ccccc2c2ccccc12  EC50 (reporter gene, agonist, yeast LacZ reporter; Saccharomyces cerevisiae; 18 h, 30 °C; baseline: 50% of 100 µM phenanthrene activity): 7.83 µM
COC(=O)N(C(=O)N1COC2(C(=O)OC)Cc3cc(Cl)ccc3C2=N1)c1ccc(OC(F)(F)F)cc1 (racemic)  EC50 (agonist): > 100 µM
Oc1cc(Cl)cc(-c2cccc(Cl)c2)c1  IC50 (reporter gene, antagonist; AZ-AHR cells; 24 h, with: TCDD 4.5 nM): 18 µM
O=C(Nc1ccccc1-c1ccc(Cl)cc1)c1cccnc1Cl  EC50 (agonist): > 100 µM
COc1cc(C(=O)N2CC[C@@H](O)[C@@H](N)C2)cc2nc(-c3cc4ccccc4n3CC3CC3)n(C)c12  EC50 (agonist, FRET): 79.4 µM
